Published values of several laboratories.
Numbered parts are unrelated; each lists some results of a single study. Changes are numbered by the printed parent chain.

Study 1
Target: ABI1, truncated, D143A, DHFR fusion (Arabidopsis thaliana, UniProt P49597)
Technique: DHFR PCA, dose-response
Matrix: yeast
Setting: Hill fit, mean, not affinity
Together with: (+)-ABA, dose series
Direction: lower = more sensitive
Parent: PYL1, truncated, DHFR fusion (Arabidopsis thaliana, UniProt Q8VZS8); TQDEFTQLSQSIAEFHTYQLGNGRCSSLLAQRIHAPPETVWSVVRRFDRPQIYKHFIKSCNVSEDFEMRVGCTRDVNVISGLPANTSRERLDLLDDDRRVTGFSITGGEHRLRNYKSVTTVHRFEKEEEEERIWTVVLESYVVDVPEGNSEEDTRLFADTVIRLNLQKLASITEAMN
`E14W` gave an ABA EC50 of 49.6 µM.
`Q10S` has an ABA EC50 of 1.32 µM.
With `Y18V` the ABA EC50 was 9 µM.
For `Y141F`, the ABA EC50 was 26.1 µM.
With `T73C` the ABA EC50 was 2.78 µM.
With `T160C` the ABA EC50 was 6.25 µM.
With `Q10E` the ABA EC50 was 2.73 µM.
For `E38M`, the ABA EC50 was 102 µM.
`E129P` has an ABA EC50 of 2.82 µM.
For `Q7R`, the ABA EC50 was 3.13 µM.
The ABA EC50 of `V44I` is reported as 3.83 µM.
With `D3V` the ABA EC50 was 4.52 µM.
For `G108K`, the ABA EC50 was 698 µM.
`P37N` has an ABA EC50 of 185 µM.
With `E38H` the ABA EC50 was 9.29 µM.
`G71F` has an ABA EC50 of 196 µM.
`C25K` gave an ABA EC50 of 198 µM.
For `N77D`, the ABA EC50 was 3.34 µM.
`S26H` gave an ABA EC50 of 3.62 µM.
For `F15N`, the ABA EC50 was 16.9 µM.
For `R132Q`, the ABA EC50 was 0.852 µM.
For `Y18D`, the ABA EC50 was 40 µM.

Study 2
Target: RNA binding protein fox-1 homolog 2, RRM domain, GST-SBP tag (RBFOX2, Homo sapiens, UniProt O43251-10, residues 100-194)
Technique: RNA Bind-n-Seq
Molecule type: RNA
Matrix: in vitro
Concentration: 365 nM
Setting: natural RNA segment, single round, ends assumed
Relative to: no-protein control
Direction: higher = stronger binding
Shared flanks, not repeated: GGGAGUUCUACAGUCCGACGAUC … UGGAAUUCUCGGGUGCCAA
Construct (chain): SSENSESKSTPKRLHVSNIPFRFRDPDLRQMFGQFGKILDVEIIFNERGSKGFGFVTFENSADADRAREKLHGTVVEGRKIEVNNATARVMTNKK
`AAGGAGAUGACCGGAAGCAACCCCUUCACAGACACGAGCACAUCGGCAAACCCUAUGAAAGUGGAAUUUUCUAACAAAAUAAACUUGCUUGUUUGAUCUGUUUUCUGUAA`: “RBNS enrichment (R)” 0.377.
For `UCAUUACCCAUUGGGAAACACAAUGGCUACUUCUGUUAGGGUACAUUGACCUUGGUCAAGCAUCUUAAAGAAGGCAACCCUAAUUGAGAGCUGUCUUGGCUAAUACUCUG`, “RBNS enrichment (R)” read 0.268.
For `AUGAUCUUAAAGAUAUGUUUAAGUUAAUGGAUGUAAUGCAGGGUUCCUACACUGUAUUUUGGCGCAUGUUGGUGGCCCUCUGUGCCCUAGAUAUAUGCACACAGGGUGCA`, “RBNS enrichment (R)” read 9.05.
For `UCUGCCUUUAUCUUGCCUCUGGCCUUAUAUUUCAUACUUUGUUCAAUAUGGCUGGAUAAUAAACACUCCUGGGUAGAGGAGGCCAGGAGCCUCACUGUCCCAAUUCCCAA`, “RBNS enrichment (R)” read 0.22.
`GAAGGGCUCUGUCAACAUGGACCUGGACUAGGCUCUGUGCUGGCUCCCUCCCCCACUUCAUGAGAUGUGUUUGCCAUAGUAUGUGAUCCUGUAUAACAGACUGAGUCUAU`: “RBNS enrichment (R)” 0.452.
`AUUAAGCAUGGCAUAAGAAGAUAUGAUUGUGUGUCAAGGUGACAAGGGGUGAACUUCAGAUGGCUCUUCUUGGUUGUCAGCCCGACUACAUUUGGAAUUAACUGAAGCCA` — result for “RBNS enrichment (R)”: 1.94.
Under “RBNS enrichment (R)”, `CCACUCACCAGCUGAGGUCUGUCAGGUUUUGAAGGCUUGAUUUUGUGGUGGGUUUGGGGCUUAGUUUUCCUUUUUUUCAUUUUGAUUUUUGAAAGUGAAGAUGAUGCCCU` is recorded as 0.296.
`GCCCUGACUGCUCUUCCACAGGUCCUGAGUUCAAUUCCCAGCAACCACAUGGUGGUUCCCAACCAUCUGUAAUGGGAUCUGAUGCCCUCUUCUGGUGUGUCUGAAGACAA` — result for “RBNS enrichment (R)”: 0.244.
Under “RBNS enrichment (R)”, `GGCCGAGUUUGGGCCCAUGGAGCACACCCAGGCUGUGGACUAUGUUAAGAAGCUCAUGACCAAGGGCCGCUACUCGCUGGAUGUAUGGAGCUAGGAGCUGCCGCCCCCCA` is recorded as 0.922.
`AUCAGAGGGCCAAGCAGAGUUCUUUUGGAUACCUGCUUUUCAUCCCACAGGGCCUUAGAGUCAGAGGUAAGGUAGCAACAGAGCUAGAAUGGGGCAAUGCACUCUUACCC` — result for “RBNS enrichment (R)”: 0.708.
`CCAGUAUAUUUUUUCAUAACUCCAGUGCUCAGACCUAGAGUAAUAAAGCUUUUCUUACAGAAAACCAUCACAGCGACAUUACCUCAUGUUUGUAUGUUUAGUUUUGUGUC` — result for “RBNS enrichment (R)”: 0.762.
`GGUGAUAGCAUGACCCUCCAUGCUUCUUACUGGUUAAUGCUAUUUCUCACAAUGAUGCAGAUUAGGAAAAUUGAAGUAUUCAGGAAACAGGGGUGGUUGCUAAGGUUCCG` — result for “RBNS enrichment (R)”: 0.822.

Study 3
Target: Prothrombin, mature alpha-thrombin (F2, Homo sapiens, UniProt P00734)
Technique: aptamer microarray, sandwich
Molecule type: DNA with 2'F-ANA
Matrix: in vitro
Concentration: 200 nM
Setting: whole 15-mer aptamer, many near background
Together with: Cy3 exosite-II aptamer, 400 nM
Direction: higher = stronger binding
Strand: GGTTGGTGTGGTTGG
`2'F-ANA at 1 2 11 12 15`: “mean fluorescence intensity” 326 a.u.
Under “mean fluorescence intensity”, `2'F-ANA at 2 5 7 11 12 13` is recorded as 98.7 a.u.
`2'F-ANA at 1 4 5 6 7 9 11 12` — result for “mean fluorescence intensity”: 87.8 a.u.
`2'F-ANA at 1 3 4 6 7 8 12 13 14 15` — result for “mean fluorescence intensity”: 96.2 a.u.
`2'F-ANA at 1 8 11 13 14 15` — result for “mean fluorescence intensity”: 62.1 a.u.
`2'F-ANA at 2 4 10 11 12 13` — result for “mean fluorescence intensity”: 97.8 a.u.
`2'F-ANA at 5 8 9 10 11 13 15` — result for “mean fluorescence intensity”: 46.1 a.u.
Under “mean fluorescence intensity”, `2'F-ANA at 3 4 5 12 13` is recorded as 148 a.u.
`2'F-ANA at 8 9 10 12 15` — result for “mean fluorescence intensity”: 228 a.u.
Under “mean fluorescence intensity”, `2'F-ANA at 1 3 4 6 7 8 9 10 12 13 14 15` is recorded as 56.7 a.u.
For `2'F-ANA at 4 5 7 9 10 11`, “mean fluorescence intensity” read 47.2 a.u.
Under “mean fluorescence intensity”, `2'F-ANA at 2 4 7 8 9 11 12 14` is recorded as 118 a.u.
Under “mean fluorescence intensity”, `2'F-ANA at 1 3 4 7 9 10 11 13 15` is recorded as 59.7 a.u.
For `2'F-ANA at 2 3 6 8 9 13`, “mean fluorescence intensity” read 568 a.u.
`2'F-ANA at 1 7 10 13`: “mean fluorescence intensity” 50.1 a.u.
`2'F-ANA at 2 3 5 7 8 9 10 14 15` — result for “mean fluorescence intensity”: 56.4 a.u.
`2'F-ANA at 1 2 3 5 9 12 15`: “mean fluorescence intensity” 129 a.u.
Under “mean fluorescence intensity”, `2'F-ANA at 1 2 3 5 7 12 15` is recorded as 121 a.u.
`2'F-ANA at 1 2 3 4 5 6 8 9 10 11`: “mean fluorescence intensity” 49.7 a.u.
Under “mean fluorescence intensity”, `2'F-ANA at 1 2 3 4 8 10` is recorded as 58.4 a.u.

Study 4
Target: Ras GTPase-activating protein-binding protein 1, RRM domain (G3BP1, Homo sapiens, UniProt Q13283)
Sequence of UniProt Q13283 (whole entry, looked up): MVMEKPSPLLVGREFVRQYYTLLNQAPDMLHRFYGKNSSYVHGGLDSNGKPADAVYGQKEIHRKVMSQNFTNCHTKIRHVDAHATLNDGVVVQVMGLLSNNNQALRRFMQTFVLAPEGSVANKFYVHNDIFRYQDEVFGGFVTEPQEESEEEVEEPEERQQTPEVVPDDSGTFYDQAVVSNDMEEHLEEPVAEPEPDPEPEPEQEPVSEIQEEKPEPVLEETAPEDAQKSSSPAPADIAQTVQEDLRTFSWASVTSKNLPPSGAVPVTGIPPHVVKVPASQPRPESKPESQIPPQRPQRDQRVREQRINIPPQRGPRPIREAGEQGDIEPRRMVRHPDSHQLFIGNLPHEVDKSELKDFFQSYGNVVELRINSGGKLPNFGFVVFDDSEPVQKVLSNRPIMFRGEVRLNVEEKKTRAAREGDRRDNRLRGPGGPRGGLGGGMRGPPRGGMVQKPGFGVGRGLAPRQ
Technique: RNA Bind-n-Seq
Molecule type: RNA
Matrix: in vitro
Concentration: 1 µM
Setting: whole 134-nt RNA, ends assumed
Together with: 150 mM KCl
Relative to: input library
Direction: higher = stronger binding
Shared flanks, not repeated: GGGAGUUCUACAGUCCGACGAUC … UGGAAUUCUCGGGUGUCAAGG
With `GCAGGAAGUAAAAACAAAUGGAUAUGCUUCGGAUAGUGGCAGGGGUGGGGGUUGCUAAGGAAAGGGUGGGAUGGGAGUGGGUAAAGAGUU` the log2 enrichment was 1.7.
For `GCAGGAAGUAAAAACAAAUGGAAAUGCUUCGGAUAGUGGCAGGGGUGGGGGUUGCUAAGGAAAGGGUGGGAUGGGCGUGGGUAAAGAGUU`, the log2 enrichment was 0.74.
For `CACAGACAACACGCACCCACACAGACACAGAGGGAAGGGGUUGGGAUGGGCACAGGGUGCACAGCAGGGCGGGGUAGGACCCCAGCCCCU`, the log2 enrichment was 0.0656.
`UGGGAGGUGGAUUUUGUUUAUUUUUUUAGCUCAUUUCCAGGGGUGGGAAUUUUUUUUUAAUAUGCGUCAUGAAUAAAGUUGUUUUUGAAA` gave a log2 enrichment of 1.63.
`ACCAUGCAGGUGGGCAUCUUUGGGAAGUGGGGCAAGGGGGGGAUAGGGAGGGGGGUAACACUUUGGGAACAGGUGGUCCCUGGUCGUUUC` has a log2 enrichment of 0.639.
`UGUGCUACACAUCGUAUGUACCGAAUCGGGGAAAAAAAGGAAAAAAAGGGGAAAAAAAGGGGAAAGUAUUAUGUUACGCCGUUCGGAUCU` gave a log2 enrichment of 0.111.
The log2 enrichment of `CUCAAGUCCUGUGCUACACAUCGUAUGUACCGAAUCGGGAGGGUGGGAAAGGGAAAGUAUUAUGUUACGCCGUUCGGAUCUGCACUUCCA` is reported as 0.664.
With `GCAGGAAGUAAAAACAAAUGGAAAUGCUUCGGAUAGUGGCAGGGGUGGGGGUUGCUAAGGAAAGGGUGGGAUGGGAGUGGCUAAAGAGUU` the log2 enrichment was 1.2.
With `ACCAUGCAGGUGGGCAUCUUUGGGAAGUGGGGCAAGGGGGGGAUAGGGAAAGGGGUAACACUUUGGGAACAGGUGGUCCCAGGUCGUUUC` the log2 enrichment was -0.491.

Study 5
Target: CCNB3, cyclin fold, Cln2 fusion (human)
Technique: yeast growth competition, sequencing
Matrix: yeast
Setting: weak parent motif
Relative to: not given
Direction: higher = stronger binding
Parent: BORA docking peptide (human); SSLRRKLFLDGNG; partner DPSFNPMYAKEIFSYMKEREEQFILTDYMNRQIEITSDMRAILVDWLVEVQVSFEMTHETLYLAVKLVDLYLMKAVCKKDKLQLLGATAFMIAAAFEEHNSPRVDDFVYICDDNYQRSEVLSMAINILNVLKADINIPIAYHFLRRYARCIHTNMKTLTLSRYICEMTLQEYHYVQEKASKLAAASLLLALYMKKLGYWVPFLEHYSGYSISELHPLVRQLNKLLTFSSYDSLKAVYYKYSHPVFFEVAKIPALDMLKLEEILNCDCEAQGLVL
`SSLRKKLLLDGNG [R5K F8L]` — result for “normalised enrichment score”: 0.0957.
`SSLRRALFLDGNG [K6A]`: “normalised enrichment score” 0.287.
For `SSLRRKLFFDGNG [L9F]`, “normalised enrichment score” read 0.795.
Under “normalised enrichment score”, `ASLRRKLFLDGNG [S1A]` is recorded as 0.46.
For `SSLRRKLFLDGAG [N12A]`, “normalised enrichment score” read 1.01.
`SSLRRKLFLAGNG [D10A]` — result for “normalised enrichment score”: 0.115.
`SALRRKLFLDGNG [S2A]` — result for “normalised enrichment score”: 0.694.
For `SSLARKLFLDGNG [R4A]`, “normalised enrichment score” read 0.364.

Repeated from above (study 2):
`CCAGUAUAUUUUUUCAUAACUCCAGUGCUCAGACCUAGAGUAAUAAAGCUUUUCUUACAGAAAACCAUCACAGCGACAUUACCUCAUGUUUGUAUGUUUAGUUUUGUGUC` — result for “RBNS enrichment (R)”: 0.762.
`AUCAGAGGGCCAAGCAGAGUUCUUUUGGAUACCUGCUUUUCAUCCCACAGGGCCUUAGAGUCAGAGGUAAGGUAGCAACAGAGCUAGAAUGGGGCAAUGCACUCUUACCC` — result for “RBNS enrichment (R)”: 0.708.
`GAAGGGCUCUGUCAACAUGGACCUGGACUAGGCUCUGUGCUGGCUCCCUCCCCCACUUCAUGAGAUGUGUUUGCCAUAGUAUGUGAUCCUGUAUAACAGACUGAGUCUAU`: “RBNS enrichment (R)” 0.452.
`AUUAAGCAUGGCAUAAGAAGAUAUGAUUGUGUGUCAAGGUGACAAGGGGUGAACUUCAGAUGGCUCUUCUUGGUUGUCAGCCCGACUACAUUUGGAAUUAACUGAAGCCA` — result for “RBNS enrichment (R)”: 1.94.
For `UCUGCCUUUAUCUUGCCUCUGGCCUUAUAUUUCAUACUUUGUUCAAUAUGGCUGGAUAAUAAACACUCCUGGGUAGAGGAGGCCAGGAGCCUCACUGUCCCAAUUCCCAA`, “RBNS enrichment (R)” read 0.22.
Under “RBNS enrichment (R)”, `GGCCGAGUUUGGGCCCAUGGAGCACACCCAGGCUGUGGACUAUGUUAAGAAGCUCAUGACCAAGGGCCGCUACUCGCUGGAUGUAUGGAGCUAGGAGCUGCCGCCCCCCA` is recorded as 0.922.
For `UCAUUACCCAUUGGGAAACACAAUGGCUACUUCUGUUAGGGUACAUUGACCUUGGUCAAGCAUCUUAAAGAAGGCAACCCUAAUUGAGAGCUGUCUUGGCUAAUACUCUG`, “RBNS enrichment (R)” read 0.268.
Under “RBNS enrichment (R)”, `CCACUCACCAGCUGAGGUCUGUCAGGUUUUGAAGGCUUGAUUUUGUGGUGGGUUUGGGGCUUAGUUUUCCUUUUUUUCAUUUUGAUUUUUGAAAGUGAAGAUGAUGCCCU` is recorded as 0.296.
